# Measured values of several laboratories.
# Numbered parts are unrelated; each lists some results of a single study. Substitutions count along the parent as printed.
# Chain of UniProt Q8N2K1 (whole entry, looked up): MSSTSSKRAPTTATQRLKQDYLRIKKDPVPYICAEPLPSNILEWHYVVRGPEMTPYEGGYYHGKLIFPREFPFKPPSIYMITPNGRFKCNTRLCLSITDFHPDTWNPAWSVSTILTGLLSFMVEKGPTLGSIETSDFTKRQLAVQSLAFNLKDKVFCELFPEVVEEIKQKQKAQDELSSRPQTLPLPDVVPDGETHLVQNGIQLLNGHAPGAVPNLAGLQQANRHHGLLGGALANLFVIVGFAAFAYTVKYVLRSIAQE
# Chain of UniProt Q9ZSY8 (whole entry, looked up): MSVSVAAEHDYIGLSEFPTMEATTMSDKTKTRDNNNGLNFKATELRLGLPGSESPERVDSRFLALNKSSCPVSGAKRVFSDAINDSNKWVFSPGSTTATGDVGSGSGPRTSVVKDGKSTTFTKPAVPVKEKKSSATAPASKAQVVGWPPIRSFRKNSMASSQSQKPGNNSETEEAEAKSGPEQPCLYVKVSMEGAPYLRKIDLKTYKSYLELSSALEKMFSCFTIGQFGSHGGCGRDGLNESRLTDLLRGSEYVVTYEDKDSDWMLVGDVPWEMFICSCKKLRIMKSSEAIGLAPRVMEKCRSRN
# Chain of UniProt P63146 (whole entry, looked up): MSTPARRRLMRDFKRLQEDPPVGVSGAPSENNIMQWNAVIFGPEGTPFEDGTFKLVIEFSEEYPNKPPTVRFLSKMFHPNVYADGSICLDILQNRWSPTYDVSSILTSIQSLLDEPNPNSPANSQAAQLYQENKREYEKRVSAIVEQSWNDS
# Chain of UniProt O00762 (whole entry, looked up): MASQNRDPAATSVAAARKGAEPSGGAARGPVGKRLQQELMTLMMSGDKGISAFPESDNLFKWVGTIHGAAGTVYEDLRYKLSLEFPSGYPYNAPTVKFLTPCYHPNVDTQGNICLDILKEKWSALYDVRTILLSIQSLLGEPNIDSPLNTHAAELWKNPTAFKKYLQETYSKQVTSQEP
# Chain of UniProt Q9C0C9 (whole entry, looked up): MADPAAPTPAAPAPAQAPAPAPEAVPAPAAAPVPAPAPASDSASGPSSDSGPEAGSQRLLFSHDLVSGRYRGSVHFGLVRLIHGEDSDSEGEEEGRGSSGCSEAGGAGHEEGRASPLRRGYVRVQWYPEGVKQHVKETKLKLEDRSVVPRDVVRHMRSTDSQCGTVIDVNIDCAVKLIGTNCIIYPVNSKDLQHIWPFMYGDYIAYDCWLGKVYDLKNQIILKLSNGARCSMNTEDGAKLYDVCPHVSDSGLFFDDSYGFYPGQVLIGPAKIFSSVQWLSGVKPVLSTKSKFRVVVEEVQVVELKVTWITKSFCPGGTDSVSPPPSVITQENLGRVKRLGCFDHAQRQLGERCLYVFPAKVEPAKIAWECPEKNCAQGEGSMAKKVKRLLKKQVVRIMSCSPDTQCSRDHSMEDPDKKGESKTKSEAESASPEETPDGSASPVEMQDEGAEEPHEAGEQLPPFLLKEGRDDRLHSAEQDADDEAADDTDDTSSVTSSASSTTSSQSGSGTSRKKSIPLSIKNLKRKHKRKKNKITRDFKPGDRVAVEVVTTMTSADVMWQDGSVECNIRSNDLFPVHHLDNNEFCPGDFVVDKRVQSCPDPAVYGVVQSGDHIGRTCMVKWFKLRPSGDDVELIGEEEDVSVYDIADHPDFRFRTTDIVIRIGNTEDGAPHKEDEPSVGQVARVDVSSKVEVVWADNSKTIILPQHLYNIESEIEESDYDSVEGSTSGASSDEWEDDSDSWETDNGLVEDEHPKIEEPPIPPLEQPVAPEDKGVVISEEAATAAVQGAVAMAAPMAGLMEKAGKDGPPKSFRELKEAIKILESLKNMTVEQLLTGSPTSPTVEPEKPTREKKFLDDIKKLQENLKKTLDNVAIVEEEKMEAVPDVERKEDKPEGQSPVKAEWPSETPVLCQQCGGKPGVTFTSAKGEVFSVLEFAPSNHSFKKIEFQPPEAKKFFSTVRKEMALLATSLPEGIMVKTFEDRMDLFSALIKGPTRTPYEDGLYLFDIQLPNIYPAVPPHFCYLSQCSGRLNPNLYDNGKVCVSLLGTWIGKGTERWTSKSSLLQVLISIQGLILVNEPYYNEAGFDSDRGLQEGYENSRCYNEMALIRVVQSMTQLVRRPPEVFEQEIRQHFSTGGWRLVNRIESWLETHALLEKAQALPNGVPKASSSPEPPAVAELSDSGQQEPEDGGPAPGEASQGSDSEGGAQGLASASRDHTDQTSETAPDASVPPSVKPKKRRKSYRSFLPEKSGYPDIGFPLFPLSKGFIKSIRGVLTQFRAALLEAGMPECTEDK
# Chain of UniProt P61081 (whole entry, looked up): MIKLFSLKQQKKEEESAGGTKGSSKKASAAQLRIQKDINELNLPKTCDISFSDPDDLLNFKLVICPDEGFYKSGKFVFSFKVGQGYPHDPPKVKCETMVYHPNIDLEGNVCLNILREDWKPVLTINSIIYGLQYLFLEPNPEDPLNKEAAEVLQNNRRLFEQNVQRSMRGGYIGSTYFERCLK

# Sample 1 — method: yeast two-hybrid; medium: yeast; notes: mostly zero background; reference: not given; reading: higher = stronger interaction
# Molecule: GSRLQEINDVCAICYHEFTTSARITPCNHYFHALCLRKWLYIQDTCPMCHQKVYIEDDIK (RNF139 RING domain (UniProt Q8WU17))
target,lacZ reporter activity
UBE2C UBC core domain (UniProt O00762),0
UBE2J2 UBC core domain (UniProt Q8N2K1),6710
UBE2M UBC core domain (UniProt P61081),0
UBE2O UBC core domain (UniProt Q9C0C9),0
UBE2B UBC core domain (UniProt P63146),0
UBE2I UBC core domain (UniProt P63279),0
BIRC6 UBC core domain (UniProt Q9NR09),0

# Sample 2 — method: DHFR PCA, dose-response; medium: yeast; notes: Hill fit, not affinity; added: (+)-ABA, dose series; reading: lower = more sensitive
# Target: ABI1, truncated, D143A, DHFR fusion (Arabidopsis thaliana, UniProt P49597)
# Parent: PYL1, truncated, DHFR fusion (Arabidopsis thaliana, UniProt Q8VZS8); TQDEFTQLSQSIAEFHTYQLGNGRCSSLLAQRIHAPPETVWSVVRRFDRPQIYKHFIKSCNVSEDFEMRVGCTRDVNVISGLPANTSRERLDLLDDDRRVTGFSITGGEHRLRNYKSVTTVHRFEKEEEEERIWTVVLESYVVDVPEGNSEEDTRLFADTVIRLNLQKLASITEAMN
Change,ABA EC50
N177E,1.21 µM
S140K,1650 µM
F103S,1840 µM
I133E,0.757 µM
E109D,0.0936 µM
N85I,30.8 µM
E130P,1.23 µM
K54H,2290 µM
N85V,21 µM
H55P,0.0535 µM

# Sample 3 — method: protein-binding microarray; form: double-stranded DNA, one strand shown; medium: in vitro; tested at: 0.8 µM; notes: whole 60-bp probe, no competitor; reading: higher = stronger binding; all sequences stand within: … GTCTTGATTCGCTTGACGCTGCTG
# Target: Centromere-binding protein 1, full length, N-terminal tag (CBF1, Saccharomyces cerevisiae, UniProt P17106, residues 1-351)
# Chain of UniProt P17106 (whole entry, looked up): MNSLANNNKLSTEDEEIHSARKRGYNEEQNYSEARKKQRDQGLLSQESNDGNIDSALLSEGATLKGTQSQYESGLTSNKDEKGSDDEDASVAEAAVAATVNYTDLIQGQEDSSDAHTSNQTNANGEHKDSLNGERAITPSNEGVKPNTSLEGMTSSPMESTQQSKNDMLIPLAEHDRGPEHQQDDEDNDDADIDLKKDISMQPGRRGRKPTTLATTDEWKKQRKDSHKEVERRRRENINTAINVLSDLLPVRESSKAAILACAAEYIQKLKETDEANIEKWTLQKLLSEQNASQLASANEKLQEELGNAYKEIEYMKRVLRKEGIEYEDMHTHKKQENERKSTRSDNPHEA
Sequence,fluorescence intensity [a.u.]
CTACACTTTGGGAATCACACCGCGAAACTGGCATTC,581
GAACATATATATGATCACATATATATTTCTGTGTAG,584
GAAGACTCCTACATACACGGGACCTGCAAGGTGTAG,1060
GAATGATGTTGCAGACTCGTGATCACAGTTTACTAG,3280
GAACTGACCATAGTACATGTGCAAGTTATTCAATAG,838
GAAGGCTTATTAAGACATCAGAGTTCATTAAATTAG,477
CTATACTACTATTAACAACTGATGGCATCTAGATTC,509
CTAATCAATTGAGATCACGTGCAAACCGAAGAATTC,17900
GAAAGTTGACTAGTACACGCAACGAAATACTAATAG,528
CTATTGAATTTTCGTCTCCTGTTATACGAATATTTC,522
CCTAACTACTATAACGTGTGCAGATAGCTTCGTACA,668
CCTAACTACTATAGTGACGTTGGATAGCTTCGTACA,495
CTAATAATGTCTTACCACCACACACTTTAACATTTC,548
GAAATACGGAGGTACCCCGTGTTGAGATCCAACTAG,612
GAATCTTGGTCTTGCCATGTGGTCGGGATATTCTAG,820
GAAAAAATCTTCAGTCACGTGGCGCTCCGTCTTTAG,12500
CTATGAAAAAGGGTCTTGGTGGTGTTGCAGTTGTTC,526
GAATTGAGCAAAGAGCACGTTGCGAATACGTTTTAG,602
CTATGCTTAGGAAGGTACGTGCGCCTCCTAACCTTC,491

# Sample 4 — target: CCND1, cyclin fold, Cln2 fusion (human); method: yeast growth competition, sequencing; medium: yeast; notes: strong parent motif; reference: not given; reading: higher = stronger binding
# Parent: CDKN1A docking peptide (human); SKACRRLFGPVDS; partner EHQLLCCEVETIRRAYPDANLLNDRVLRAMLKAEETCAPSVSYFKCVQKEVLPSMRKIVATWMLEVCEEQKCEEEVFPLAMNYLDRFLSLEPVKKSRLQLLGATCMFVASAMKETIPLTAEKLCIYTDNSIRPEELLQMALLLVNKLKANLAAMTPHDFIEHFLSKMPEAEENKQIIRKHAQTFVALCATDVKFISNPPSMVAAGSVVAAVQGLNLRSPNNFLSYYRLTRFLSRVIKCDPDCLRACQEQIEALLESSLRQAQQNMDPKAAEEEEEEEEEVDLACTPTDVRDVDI
Change,normalised enrichment score
SKACRRLFGQVDS [P10Q],1.48
SKACRRLFYPVDS [G9Y],4.52
SKACRRLFGNVDS [P10N],2.13
SKAFRRLFGPVDS [C4F],0.328
SKACRRLFGWVDS [P10W],0.887
SKAARRLFGPVDS [C4A],1.45
SKVCRRLFGPVDS [A3V],1.62
SRACRRLFGPVDS [K2R],2.55
SKACHRLFGPVDS [R5H],0.172
SKACRRLFGPVTS [D12T],1.89
SKACRRLFSPVDS [G9S],3.33
SKACRRMFGPVDS [L7M],0.294
SKACRRLFGVVDS [P10V],1.37
SKAMRRLFGPVDS [C4M],0.993
SKACRRQFGPVDS [L7Q],0.219
SKACRRLFAPVDS [G9A],3.56
SKACRRKFGPVDS [L7K],0.15
SKACRRLFGGVDS [P10G],2.24
SKACRRLFGPEDS [V11E],5.31
SDACRRLFGPVDS [K2D],1.78
SKPCRRLFGPVDS [A3P],0.959
SKACRRRFGPVDS [L7R],0.0341
SKACRPLFGPVDS [R6P],0.347
SKACRRLFGHVDS [P10H],1.25
SKACRFLFGPVDS [R6F],0.656

# Other studies, line by line — method: two-hybrid; reference: out of 4 tests; reading: higher = firmer interaction
# Partner: ARF14 497-605 (Arabidopsis thaliana, UniProt Q9LQE8)
# B1: IAA32 (Arabidopsis thaliana, UniProt Q8RYC6); chain MDPNTPADFFKGSSKFHTYYSQTKKGGGVIDLGLSLRTIQHETYLPPARMIGLDGYGELIDWSQPSYNSITQLKSEDTGHQRLAQGYYNNEGESRGKYAYVKVNLDGLVVGRKVCLVDQGAYATLALQLNDMFGMQTVSGLRLFQTESEFSLVYRDREGIWRNVGDVPWKEFVESVDRMRIARRNDALLPF
# B2: IAA28 (Arabidopsis thaliana, UniProt Q9XFM0); chain MEEEKRLELRLAPPCHQFTSNNNINGSKQKSSTKETSFLSNNRVEVAPVVGWPPVRSSRRNLTAQLKEEMKKKESDEEKELYVKINMEGVPIGRKVNLSAYNNYQQLSHAVDQLFSKKDSWDLNRQYTLVYEDTEGDKVLVGDVPWEMFVSTVKRLHVLKTSHAFSLSPRKHGKE
# B3: IAA34 (Arabidopsis thaliana, UniProt Q9C5X0); chain MYCSDPPHPLHLVASDKQQKDHKLILSWKKPTMDSDPLGVFPNSPKYHPYYSQTTEFGGVIDLGLSLRTIQHEIYHSSGQRYCSNEGYRRKWGYVKVTMDGLVVGRKVCVLDHGSYSTLAHQLEDMFGMQSVSGLRLFQMESEFCLVYRDEEGLWRNAGDVPWNEFIESVERLRITRRNDAVLPF
# One construct used (chain): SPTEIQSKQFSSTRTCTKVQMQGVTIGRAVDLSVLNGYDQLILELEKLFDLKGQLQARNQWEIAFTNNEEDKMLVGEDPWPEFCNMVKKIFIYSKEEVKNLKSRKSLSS
Molecule,positive tests
B1 (IAA32),0
B2 (IAA28),0
"IAA27 (Arabidopsis thaliana, UniProt Q9ZSY8)",0
B3 (IAA34),0

# Repeated from above (sample 4):
Change,normalised enrichment score
SKACRRLFAPVDS [G9A],3.56
SKACRRKFGPVDS [L7K],0.15
SKACRRLFGGVDS [P10G],2.24
SKACRRLFGPEDS [V11E],5.31
SDACRRLFGPVDS [K2D],1.78
SKPCRRLFGPVDS [A3P],0.959
